Measured values from different studies.
Compare with care: the assays were run in different laboratories. Numbers after ± are the reported error.

By UniProt entry, the sequences of proteins in these tests, tags left out. Residues count along the entry.
UniProt P10635, whole entry: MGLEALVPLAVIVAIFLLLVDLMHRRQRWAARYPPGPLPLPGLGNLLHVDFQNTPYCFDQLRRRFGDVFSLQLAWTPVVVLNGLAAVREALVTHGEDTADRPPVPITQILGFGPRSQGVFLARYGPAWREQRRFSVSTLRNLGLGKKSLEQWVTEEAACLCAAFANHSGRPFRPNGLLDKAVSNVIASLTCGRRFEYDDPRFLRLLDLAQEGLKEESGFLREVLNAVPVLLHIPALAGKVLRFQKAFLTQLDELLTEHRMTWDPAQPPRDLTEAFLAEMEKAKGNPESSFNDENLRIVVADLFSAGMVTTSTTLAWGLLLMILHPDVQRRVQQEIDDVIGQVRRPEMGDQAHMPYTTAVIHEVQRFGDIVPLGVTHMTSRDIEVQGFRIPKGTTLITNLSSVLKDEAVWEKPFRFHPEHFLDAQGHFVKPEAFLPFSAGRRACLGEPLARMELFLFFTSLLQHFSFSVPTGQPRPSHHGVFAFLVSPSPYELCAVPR
UniProt P45983, 1-384 isoform 3: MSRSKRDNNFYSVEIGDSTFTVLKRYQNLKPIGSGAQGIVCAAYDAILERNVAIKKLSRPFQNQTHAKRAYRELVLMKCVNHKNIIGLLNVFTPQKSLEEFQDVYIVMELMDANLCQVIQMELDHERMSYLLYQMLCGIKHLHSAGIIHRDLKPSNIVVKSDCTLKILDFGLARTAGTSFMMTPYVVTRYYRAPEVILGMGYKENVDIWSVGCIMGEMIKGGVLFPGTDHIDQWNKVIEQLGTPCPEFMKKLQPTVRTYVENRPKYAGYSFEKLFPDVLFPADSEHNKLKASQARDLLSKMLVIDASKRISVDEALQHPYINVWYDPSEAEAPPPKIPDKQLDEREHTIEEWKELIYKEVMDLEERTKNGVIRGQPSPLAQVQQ

CNc1ccc(-c2nc(C)c(CSc3ccc(OCC(=O)O)c(C)c3)s2)cc1
CC50 (HEK293T; 18 h): not toxic

COc1ccc(CC(=O)OCc2ccc(-n3cccn3)cc2)cc1F
inhibition (Cytochrome P450 2D6 (CYP2D6, Homo sapiens, UniProt P10635); inhibitor; 10 µM): 4.3%

Cc1cc(SCc2sc(-c3ccccc3C)nc2C)ccc1OCC(=O)O
CC50 (HEK293T; 18 h): > 100 µM

COC(=O)[C@@H]1C(c2nc3cc(Cl)ccc3o2)=Cc2cc3c(cc2[C@H]1c1cc(OC)c(OC)c(OC)c1)OCO3
CC50 (mouse splenocytes uninfected; Alamar Blue; 48 h): > 100 µM

CCCSc1nc(N[C@@H]2C[C@H]2c2ccc(F)c(F)c2)c2nnn([C@@H]3C[C@H](O)[C@@H](O)[C@H]3O)c2n1
AUC (rat, male, plasma; oral, 20 mg/kg/day ticagrelor, week 26): 16.3 µM·h

COC(=O)[C@@]1(C)C=C(C(=O)Nc2cccc(C(=O)NC34CC(Nc5nccc(-c6cccnc6)n5)(C3)C4)c2)C(=O)CC1
remaining activity (Mitogen-activated protein kinase 8 (MAPK8, Homo sapiens, UniProt P45983); kinase activity, inhibitor; 0.006774 µM, unit not given, with: 10 mM GSH; baseline: DMSO): 0.692

Cc1n[nH]c(C)c1CCOC(=O)c1cccc2c1oc(=O)n2C
AUC(0-t) (BALB/c mouse, plasma; oral, 10 mg/kg): 7200 ng·h/mL

Cc1cc(SCc2sc(-c3cccc(C#N)c3)nc2C)ccc1OCC(=O)O
CC50 (HEK293T; 18 h): > 80 µM

COc1cc([C@@H]2c3cc4c(cc3[C@H](C=C(C)C)[C@H]3COC(=O)[C@H]23)OCO4)cc(OC)c1OC
CC50 (mouse splenocytes uninfected; Alamar Blue; 48 h): 6.4 ± 0.8 µM

Nc1ncc(-c2ccc3ncnc(N4CCc5cc(F)c(Cl)cc54)c3c2)cn1
Tmax (CD1 mouse, brain; intraperitoneal, 50 mg/kg): 1 h

CC(C)n1nnc(-c2cc(O)cc(Nc3ncnn4ccc(CN5CCC(N)CC5)c34)c2)n1
total brain concentration (mouse, brain; subcutaneous, 30 mg/kg, 90 min): 0.06 ± 0.02 µM

Cc1cc(SCc2sc(-c3ccc(C(F)(F)F)nc3)nc2C)ccc1OCC(=O)O
CC50 (HEK293T; 18 h): > 100 µM

COC(=O)[C@@H]1C(c2nc3cc(C(F)(F)F)ccc3s2)=Cc2cc3c(cc2[C@H]1c1cc(OC)c(OC)c(OC)c1)OCO3
CC50 (HepG2; Alamar Blue; 48 h): > 100 µM
